Experimental data gathered from unrelated publications.
Each line is one published result; not all experiments were run side by side. Several values in a cell are separate wells, animals, samples, runs or records. ± marks the error that the study gave.
Chain of UniProt P00747 (whole entry, looked up): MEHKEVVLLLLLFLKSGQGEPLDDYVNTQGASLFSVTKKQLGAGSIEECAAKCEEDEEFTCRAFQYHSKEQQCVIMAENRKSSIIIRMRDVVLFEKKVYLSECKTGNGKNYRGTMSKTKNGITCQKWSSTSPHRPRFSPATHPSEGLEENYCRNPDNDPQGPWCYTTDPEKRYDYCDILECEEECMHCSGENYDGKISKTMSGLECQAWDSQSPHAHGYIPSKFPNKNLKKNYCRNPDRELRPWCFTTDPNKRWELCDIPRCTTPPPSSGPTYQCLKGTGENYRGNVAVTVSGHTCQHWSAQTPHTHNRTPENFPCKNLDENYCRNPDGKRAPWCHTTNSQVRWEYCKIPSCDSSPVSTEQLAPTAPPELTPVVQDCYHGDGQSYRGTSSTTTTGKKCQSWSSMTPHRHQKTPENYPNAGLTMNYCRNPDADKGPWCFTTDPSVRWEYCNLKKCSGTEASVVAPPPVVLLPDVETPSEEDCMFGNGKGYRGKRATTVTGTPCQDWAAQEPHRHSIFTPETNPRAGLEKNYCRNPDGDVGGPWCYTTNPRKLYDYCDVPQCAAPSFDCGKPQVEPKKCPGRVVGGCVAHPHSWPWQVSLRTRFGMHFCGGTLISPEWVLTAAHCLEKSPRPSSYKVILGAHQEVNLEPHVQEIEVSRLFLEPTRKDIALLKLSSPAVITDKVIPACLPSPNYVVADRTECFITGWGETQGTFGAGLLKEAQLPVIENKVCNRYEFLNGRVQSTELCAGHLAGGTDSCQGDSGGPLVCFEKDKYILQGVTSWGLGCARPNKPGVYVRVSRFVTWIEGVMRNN

| Molecule | target or system | test | system | setting | scale | measurement | result |
| --- | --- | --- | --- | --- | --- | --- | --- |
| TFFRLFNRSFTGRRRRSVQWCA | Streptococcus mutans | 2D-DIGE, measured: cysteine synthase A | peptide, UA159 | 20 µg/mL, 1 h | relative to: water control | protein level ratio | -5.09 |
| CCOc1nc(N)ncc1-c1cn([C@@H]2O[C@](F)(CO[P@@](=O)(N[C@@H](C)C(=O)OC(C)C)Oc3ccccc3)[C@@H](OC(=O)C(C)C)[C@H]2OC(=O)C(C)C)cn1 | Zaire ebolavirus | viral replication, reporter virus | Huh-7 | 72 h | – | IC50 | 68.5 µM |
| COc1cc2ncnc(Nc3cccc(Cl)c3)c2cc1OC | Monkeypox virus | viral infection | replication-deficient | 0.015 µM | relative to: untreated | infection | 98.5% and 102% and 104% |
| LiaS fragment T120A (Enterococcus faecium) | LiaR peptide residues 49-57, FITC label (Enterococcus faecium) | MST | – | together with: ATP 0.2 mM | – | Kd | 121 ± 6.8 µM |
| CC(C)C(=O)OC[C@@]1(F)O[C@@H](n2cnc(-c3cnc(=O)[nH]c3)c2)[C@H](OC(=O)C(C)C)[C@@H]1OC(=O)C(C)C | Zaire ebolavirus | viral replication, reporter virus | Huh-7 | 72 h | – | IC50 | 87.6 µM |
| O=c1ccn([C@@H]2O[C@](F)(CO)[C@@H](O)[C@H]2O)c(=O)[nH]1 | Mammarenavirus lassaense | viral replication | HeLa, clade II Nigeria-322 | – | – | EC50 | 2.14 µM |
| Dengue virus E protein virion, UV-inactivated (Dengue virus serotype 2) | PLG 376-562 (Homo sapiens, UniProt P00747) | BLI | – | – | – | Kd | 0.0081 µM and 0.0098 µM |
| CC[C@@]1(O)C(=O)OCc2c1cc1n(c2=O)Cc2cc3cc(O)ccc3nc2-1 | MERS-CoV spike VSV pseudovirus | pseudovirus entry | – | 10 µM | – | inhibition | 39% |

A few entries again:
| Molecule | target or system | test | system | setting | scale | measurement | result |
| --- | --- | --- | --- | --- | --- | --- | --- |
| CCOc1nc(N)ncc1-c1cn([C@@H]2O[C@](F)(CO[P@@](=O)(N[C@@H](C)C(=O)OC(C)C)Oc3ccccc3)[C@@H](OC(=O)C(C)C)[C@H]2OC(=O)C(C)C)cn1 | Zaire ebolavirus | viral replication, reporter virus | Huh-7 | 72 h | – | IC50 | 68.5 µM |
